Experimental data gathered from unrelated publications.
Each line is one published result; not all experiments were run side by side.
Target: STE20-like serine/threonine-protein kinase (SLK, Homo sapiens, UniProt Q9H2G2)

SMILES = C=CC(=O)Nc1cc(-c2nn(C3CCN(CCNC(=O)[C@H](C)CCC45CC6CC(CC(C6)C4)C5)CC3)c3ncnc(N)c23)ccc1Oc1ccccc1; assay = inhibitor, KiNativ profiling; test system = biochemical; conditions = 2 µM; quantity = inhibition; value = 23.7%
SMILES = Cc1cccc(O[C@H]2CCC[C@@H](C(C)CNCc3ccncc3)C2)c1 (relative stereo); assay = enzyme activity, inhibitor; conditions = 1 µM; quantity = inhibition; value = 0%
SMILES = CCN1CCN(Cc2ccc(NC(=O)c3ccc(C)c(NC(=O)c4cncc(-c5cccs5)c4)c3)cc2C(F)(F)F)CC1; assay = binding, competition with immobilised ligand; conditions = 1 µM; quantity = remaining binding; value = 23%
SMILES = Cc1ccc(C(=O)Nc2ccc(CN3CCN(C)CC3)c(C(F)(F)F)c2)cc1C#Cc1cnc2cccnn12; assay = target engagement, NanoBRET; test system = human cells; quantity = Hill slope; value = 2.69
SMILES = COc1c(Cl)cccc1Nc1c(-c2ccncc2C#C[C@@]2(C)CCCN2C(=O)/C=C/CN(C)C)[nH]c2c1C(=O)NCC2; assay = binding, competition with immobilised ligand; conditions = 3 µM; quantity = remaining binding; value = 39%
SMILES = Nc1ncc2c(n1)-c1c([nH]c3ccc(C4=CCOCC4)cc13)CCC2; assay = binding, competition with immobilised ligand; conditions = 1 µM; quantity = remaining binding; value = 100%
SMILES = C=CC(=O)N1Cc2nc(-c3cc(-c4cc(Cl)cnc4Cl)c(F)cc3F)n(-c3ccncn3)c2C1; assay = cell-free assay, inhibitor; conditions = 1 µM; quantity = inhibition; value = 0.1%
SMILES = CN1CCN(Cc2ccc(-c3ccc(CO[C@H]4CCC[C@@H]4NC(=O)c4cc(-c5cnn(C)c5)cnc4N)cc3)cc2)CC1; assay = enzyme activity, inhibitor; conditions = 0.1 µM; quantity = inhibition; value = 7%
SMILES = Cc1cnc2nc1Nc1cccc(c1)COC/C=C/COCc1cc(ccc1OCCN1CCOCC1)N2; assay = binding, competition with immobilised ligand; conditions = 0.1 µM; quantity = remaining binding; value = 86%
SMILES = CNC1C[S+]2CC[S+]3CC[S+](C1)[Ru-4]321([N]=C=S)[n]2c3ccc(OC)cc3c3c4c(c5cc(F)c[n+]1c5c32)C(=O)NC4=O (stereo not shown); assay = KinomeScan; conditions = 0.1 µM; how to read = reference: untreated; quantity = remaining binding; value = 97%
SMILES = COc1cc(Nc2nccc(-c3cnn4nc(OC)ccc34)n2)cc(C(F)(F)F)c1; assay = binding, competition with immobilised ligand; conditions = 1 µM; quantity = remaining binding; value = 98%
SMILES = Nc1ncc(-c2cc(-c3cnn(CC(F)(F)F)c3)ncc2F)nc1C(=O)NC1CNCC(F)C1 (stereo not shown); assay = enzyme activity; conditions = 1 µM; how to read = reference: DMSO control; quantity = remaining activity; value = 88.9%
SMILES = NC(=O)C[C@H]1CCc2sc3ncnc(O[C@H]4CC[C@H](N5CCOCC5)CC4)c3c21; assay = enzyme activity, inhibitor; conditions = 10 µM; quantity = inhibition; value = 5%
SMILES = C=CC(=O)Nc1cccc(-c2cnc3[nH]cc(C(=O)NC(C)(C)C)c3n2)c1; assay = kinase activity; conditions = 0.1 µM; quantity = inhibition; value = 9%
SMILES = CNC(=O)C1CCN(c2cc(C)c(F)cc2NC(=O)c2ccc(-c3cc(O)ccc3C)c(C)c2)CC1; assay = binding, competition with immobilised ligand; conditions = 1 µM; quantity = remaining binding; value = 100%
SMILES = CN1CC[C@@H](COc2cnc(C#N)cc2-c2ccn3nc(NC(=O)C4CC4)cc3c2)C1; assay = enzyme activity, inhibitor; conditions = 1 µM; quantity = inhibition; value = 0%

A few entries again:
SMILES = Cc1cnc2nc1Nc1cccc(c1)COC/C=C/COCc1cc(ccc1OCCN1CCOCC1)N2; assay = binding, competition with immobilised ligand; conditions = 0.1 µM; quantity = remaining binding; value = 86%
SMILES = CNC1C[S+]2CC[S+]3CC[S+](C1)[Ru-4]321([N]=C=S)[n]2c3ccc(OC)cc3c3c4c(c5cc(F)c[n+]1c5c32)C(=O)NC4=O (stereo not shown); assay = KinomeScan; conditions = 0.1 µM; how to read = reference: untreated; quantity = remaining binding; value = 97%
